Published values from different studies.
Numbered parts are unrelated; each lists some results of a single study. “And” joins repeats or separate records; there may be more than shown.
Chain of UniProt Q15349 (whole entry, looked up): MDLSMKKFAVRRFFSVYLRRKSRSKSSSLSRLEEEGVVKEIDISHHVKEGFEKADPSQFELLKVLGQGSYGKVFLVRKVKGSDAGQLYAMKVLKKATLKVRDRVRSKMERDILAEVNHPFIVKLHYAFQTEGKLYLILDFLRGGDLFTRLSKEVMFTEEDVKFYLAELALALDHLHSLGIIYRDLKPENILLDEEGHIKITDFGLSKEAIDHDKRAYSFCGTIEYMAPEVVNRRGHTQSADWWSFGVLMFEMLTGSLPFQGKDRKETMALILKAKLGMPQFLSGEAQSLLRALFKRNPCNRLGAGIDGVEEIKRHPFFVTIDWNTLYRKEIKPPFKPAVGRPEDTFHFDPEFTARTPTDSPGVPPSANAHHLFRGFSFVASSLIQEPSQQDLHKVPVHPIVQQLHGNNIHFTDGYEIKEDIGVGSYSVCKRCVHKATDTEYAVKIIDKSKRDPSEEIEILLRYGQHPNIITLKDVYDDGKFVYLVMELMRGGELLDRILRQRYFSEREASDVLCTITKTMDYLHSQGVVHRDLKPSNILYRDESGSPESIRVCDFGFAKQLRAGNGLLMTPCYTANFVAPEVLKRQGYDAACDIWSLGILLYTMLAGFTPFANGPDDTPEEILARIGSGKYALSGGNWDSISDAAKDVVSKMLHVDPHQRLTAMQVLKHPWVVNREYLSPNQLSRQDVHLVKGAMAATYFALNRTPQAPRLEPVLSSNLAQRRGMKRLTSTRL
Chain of UniProt Q8IYT8 (whole entry, looked up): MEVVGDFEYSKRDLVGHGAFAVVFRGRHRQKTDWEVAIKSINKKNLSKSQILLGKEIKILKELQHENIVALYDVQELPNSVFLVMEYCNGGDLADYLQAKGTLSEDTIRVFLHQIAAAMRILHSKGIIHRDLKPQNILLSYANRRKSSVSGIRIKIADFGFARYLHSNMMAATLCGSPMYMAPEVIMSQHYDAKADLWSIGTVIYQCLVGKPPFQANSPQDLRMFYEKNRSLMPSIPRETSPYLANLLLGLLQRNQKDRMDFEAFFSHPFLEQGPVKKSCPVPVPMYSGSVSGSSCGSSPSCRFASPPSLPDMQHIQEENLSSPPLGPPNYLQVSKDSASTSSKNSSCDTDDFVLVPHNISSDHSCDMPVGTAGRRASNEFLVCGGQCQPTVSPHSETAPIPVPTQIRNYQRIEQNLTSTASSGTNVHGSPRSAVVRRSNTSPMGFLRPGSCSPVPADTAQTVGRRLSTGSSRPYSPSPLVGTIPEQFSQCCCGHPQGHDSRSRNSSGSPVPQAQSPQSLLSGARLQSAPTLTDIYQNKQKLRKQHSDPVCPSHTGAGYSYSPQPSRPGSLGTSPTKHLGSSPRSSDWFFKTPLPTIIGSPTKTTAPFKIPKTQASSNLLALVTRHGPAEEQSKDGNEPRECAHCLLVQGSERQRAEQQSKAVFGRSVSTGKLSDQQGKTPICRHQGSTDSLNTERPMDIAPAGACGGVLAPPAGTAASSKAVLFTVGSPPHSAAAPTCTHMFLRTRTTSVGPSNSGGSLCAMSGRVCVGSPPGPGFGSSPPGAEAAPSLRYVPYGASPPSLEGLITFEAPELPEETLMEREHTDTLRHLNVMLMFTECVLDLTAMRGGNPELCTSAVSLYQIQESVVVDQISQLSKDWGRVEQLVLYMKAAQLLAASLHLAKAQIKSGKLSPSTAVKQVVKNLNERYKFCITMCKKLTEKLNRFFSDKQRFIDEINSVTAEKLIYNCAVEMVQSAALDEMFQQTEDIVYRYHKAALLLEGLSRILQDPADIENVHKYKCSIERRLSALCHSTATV
Chain of UniProt O14730 (whole entry, looked up): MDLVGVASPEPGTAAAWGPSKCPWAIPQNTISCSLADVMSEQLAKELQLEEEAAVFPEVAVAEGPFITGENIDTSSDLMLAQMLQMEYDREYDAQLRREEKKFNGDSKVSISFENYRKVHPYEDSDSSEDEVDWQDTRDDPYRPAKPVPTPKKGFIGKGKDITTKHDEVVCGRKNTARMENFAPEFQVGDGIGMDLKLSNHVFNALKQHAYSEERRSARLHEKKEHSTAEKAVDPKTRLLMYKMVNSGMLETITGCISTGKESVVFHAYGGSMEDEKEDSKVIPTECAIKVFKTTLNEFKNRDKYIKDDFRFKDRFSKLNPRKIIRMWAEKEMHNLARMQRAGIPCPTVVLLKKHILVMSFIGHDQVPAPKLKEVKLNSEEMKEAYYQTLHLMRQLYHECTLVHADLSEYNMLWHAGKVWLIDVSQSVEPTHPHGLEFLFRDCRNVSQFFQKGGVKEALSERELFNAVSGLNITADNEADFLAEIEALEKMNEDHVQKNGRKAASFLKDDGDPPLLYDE
Chain of UniProt Q14164 (whole entry, looked up): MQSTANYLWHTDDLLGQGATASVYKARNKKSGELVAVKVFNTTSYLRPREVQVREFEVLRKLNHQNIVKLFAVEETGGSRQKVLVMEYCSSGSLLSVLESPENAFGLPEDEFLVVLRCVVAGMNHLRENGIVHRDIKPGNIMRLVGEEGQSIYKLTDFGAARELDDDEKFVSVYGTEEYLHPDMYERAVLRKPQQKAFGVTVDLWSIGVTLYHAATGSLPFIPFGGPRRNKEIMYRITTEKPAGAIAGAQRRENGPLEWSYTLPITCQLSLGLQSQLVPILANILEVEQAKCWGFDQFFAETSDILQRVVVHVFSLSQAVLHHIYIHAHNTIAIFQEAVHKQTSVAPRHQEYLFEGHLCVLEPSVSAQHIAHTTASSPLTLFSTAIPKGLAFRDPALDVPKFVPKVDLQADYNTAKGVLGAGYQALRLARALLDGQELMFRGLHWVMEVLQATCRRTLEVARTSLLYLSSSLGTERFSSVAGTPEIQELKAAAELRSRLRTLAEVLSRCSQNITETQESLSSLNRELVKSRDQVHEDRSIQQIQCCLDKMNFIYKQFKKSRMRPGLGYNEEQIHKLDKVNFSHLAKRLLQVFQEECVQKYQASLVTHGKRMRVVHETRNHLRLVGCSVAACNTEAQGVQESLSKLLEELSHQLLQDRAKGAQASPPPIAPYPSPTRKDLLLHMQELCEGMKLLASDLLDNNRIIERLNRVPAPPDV
Chain of UniProt P35626 (whole entry, looked up): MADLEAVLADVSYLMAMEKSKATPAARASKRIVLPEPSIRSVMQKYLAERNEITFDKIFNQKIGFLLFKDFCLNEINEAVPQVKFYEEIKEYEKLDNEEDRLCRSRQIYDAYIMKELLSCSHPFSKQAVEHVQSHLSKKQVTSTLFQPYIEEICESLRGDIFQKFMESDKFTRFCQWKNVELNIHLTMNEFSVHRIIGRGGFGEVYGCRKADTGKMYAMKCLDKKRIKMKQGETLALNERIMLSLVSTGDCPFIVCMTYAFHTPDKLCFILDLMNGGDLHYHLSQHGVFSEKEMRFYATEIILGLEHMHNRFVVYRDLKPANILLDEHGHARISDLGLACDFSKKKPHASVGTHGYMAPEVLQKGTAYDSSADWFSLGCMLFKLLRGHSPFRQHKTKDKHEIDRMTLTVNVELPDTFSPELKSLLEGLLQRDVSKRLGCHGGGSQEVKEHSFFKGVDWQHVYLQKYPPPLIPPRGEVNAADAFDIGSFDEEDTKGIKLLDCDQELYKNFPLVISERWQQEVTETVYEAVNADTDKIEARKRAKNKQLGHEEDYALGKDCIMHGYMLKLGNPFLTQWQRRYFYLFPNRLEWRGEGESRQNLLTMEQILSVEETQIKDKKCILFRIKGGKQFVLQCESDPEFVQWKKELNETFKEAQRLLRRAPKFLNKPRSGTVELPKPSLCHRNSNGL
Chain of UniProt Q8NI60 (whole entry, looked up): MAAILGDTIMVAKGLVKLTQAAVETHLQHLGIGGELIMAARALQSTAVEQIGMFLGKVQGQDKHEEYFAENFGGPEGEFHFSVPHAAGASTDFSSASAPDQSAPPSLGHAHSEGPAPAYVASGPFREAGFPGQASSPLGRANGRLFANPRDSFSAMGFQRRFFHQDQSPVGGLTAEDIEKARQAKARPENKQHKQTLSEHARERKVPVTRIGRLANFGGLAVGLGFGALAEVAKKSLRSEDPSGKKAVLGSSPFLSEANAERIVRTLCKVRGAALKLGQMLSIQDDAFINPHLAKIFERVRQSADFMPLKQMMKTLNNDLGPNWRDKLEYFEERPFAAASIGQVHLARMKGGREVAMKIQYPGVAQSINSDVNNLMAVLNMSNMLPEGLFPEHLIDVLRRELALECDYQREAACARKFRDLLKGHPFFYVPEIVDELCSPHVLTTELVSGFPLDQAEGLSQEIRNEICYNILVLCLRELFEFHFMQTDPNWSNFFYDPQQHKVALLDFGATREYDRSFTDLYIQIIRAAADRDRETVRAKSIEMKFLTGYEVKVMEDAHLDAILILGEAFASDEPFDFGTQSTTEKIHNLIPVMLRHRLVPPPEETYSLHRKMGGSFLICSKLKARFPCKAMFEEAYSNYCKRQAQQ

Block 1
Target: Serine/threonine-protein kinase 4 (STK4, Homo sapiens, UniProt Q13043)
Observed: enzyme activity
Mode: inhibitor
Concentration: 0.5 µM
Relative to: control
Measurement: remaining activity
Construct (Q13043 1-487): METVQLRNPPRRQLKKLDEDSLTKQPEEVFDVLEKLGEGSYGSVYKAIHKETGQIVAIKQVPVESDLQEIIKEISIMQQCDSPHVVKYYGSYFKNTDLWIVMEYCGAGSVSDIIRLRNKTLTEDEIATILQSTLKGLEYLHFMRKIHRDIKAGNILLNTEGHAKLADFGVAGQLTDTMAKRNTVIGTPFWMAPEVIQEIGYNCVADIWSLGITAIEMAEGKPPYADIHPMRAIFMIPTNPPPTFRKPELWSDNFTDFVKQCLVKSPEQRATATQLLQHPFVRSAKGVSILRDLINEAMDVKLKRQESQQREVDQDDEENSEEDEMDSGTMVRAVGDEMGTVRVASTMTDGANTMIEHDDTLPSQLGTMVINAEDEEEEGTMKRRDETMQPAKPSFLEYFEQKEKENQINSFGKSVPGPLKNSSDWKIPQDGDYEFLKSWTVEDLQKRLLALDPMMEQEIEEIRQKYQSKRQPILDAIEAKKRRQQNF
SMILES = Nc1[nH]nc2nnc(-c3c(-c4ccccc4)nn4ccccc34)cc12; result = 99.1%
SMILES = Cc1nc(Nc2ncc(C(=O)Nc3c(C)cccc3Cl)s2)cc(N2CCN(CCO)CC2)n1; result = 96.3%
SMILES = Cc1ccc(NC(=O)c2ccc(CN3CCN(C)CC3)cc2)cc1Nc1nccc(-c2cccnc2)n1; result = 101%
SMILES = CCOc1cc2ncnc(Nc3cccc(Br)c3)c2cc1OCC; result = 98.5%
SMILES = C[S+]([O-])c1ccc(-c2nc(-c3ccncc3)c(-c3ccc(F)cc3)[nH]2)cc1 (stereo not shown); result = 101%
SMILES = CC(C)[C@H](CO)Nc1nc(Nc2cccc(Cl)c2)c2ncn(C(C)C)c2n1; result = 87.7%
SMILES = O=c1cc(N2CCOCC2)oc2c1ccc1ccccc12; result = 99.5%
SMILES = CN(C)CCCn1cc(C2=C(c3c[nH]c4ccccc34)C(=O)NC2=O)c2ccccc21; result = 25.1%
SMILES = COc1cc2ncc(-c3ccccc3)nc2cc1OC; result = 96.3%
SMILES = COc1cc2ncnc(N3CCN(C(=O)Nc4ccc(Oc5ccccc5)cc4)CC3)c2cc1OC; result = 97.1%
SMILES = CCC(=O)Nc1ccc2ncnc(Nc3cccc(Br)c3)c2c1; result = 97.1%
SMILES = Cn1cnc2cc3c(Nc4cccc(Br)c4)ncnc3cc21; result = 94.2%
SMILES = CC(C)c1nn(-c2c(Cl)cccc2Cl)c2nc(Cc3ccc(OCCO)cc3)[nH]c(=O)c12; result = 96.7%
SMILES = CCN1/C(=C/C(C)=O)Sc2ccc(OC)cc21; result = 97.8%
SMILES = O=C1NC(=O)/C(=C/c2ccc3nccnc3c2)S1; result = 95%
SMILES = O=C(Nc1ccc(Cl)cc1)c1ccccc1NCc1ccncc1; result = 98.7%
SMILES = COc1cc2ncnc(Nc3ccc(OCc4ccccc4)cc3)c2cc1OC; result = 101%
SMILES = COc1ccc(-c2cnc3c(-c4ccsc4)cnn3c2)cc1; result = 97.3%
SMILES = Cn1cc(/C=C2\C(=O)Nc3ccc(S(N)(=O)=O)cc32)c2ccccc21; result = 10.7%
SMILES = COc1ccc(Cl)cc1NC(=O)Nc1cc(C)nc2ccccc12; result = 98.7%
SMILES = CC(=O)O/N=C1/C(c2c(O)[nH]c3cc(Br)ccc23)=Nc2ccccc21; result = 54.2%

Block 2
Target: Eukaryotic initiation factor 4A-III (Homo sapiens, UniProt P38919)
Chain of UniProt P38919 (whole entry, looked up): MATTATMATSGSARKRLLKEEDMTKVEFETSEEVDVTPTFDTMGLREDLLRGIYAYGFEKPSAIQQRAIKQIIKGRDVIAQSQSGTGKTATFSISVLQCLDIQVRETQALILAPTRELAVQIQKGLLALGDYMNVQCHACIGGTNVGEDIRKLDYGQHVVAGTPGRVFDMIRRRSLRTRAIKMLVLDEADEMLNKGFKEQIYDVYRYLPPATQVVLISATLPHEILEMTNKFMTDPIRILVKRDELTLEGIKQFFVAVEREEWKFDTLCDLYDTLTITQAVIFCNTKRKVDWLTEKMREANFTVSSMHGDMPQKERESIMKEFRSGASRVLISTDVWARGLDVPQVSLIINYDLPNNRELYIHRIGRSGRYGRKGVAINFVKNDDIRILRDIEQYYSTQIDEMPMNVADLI
Observed: RNA clamping
Method: fluorescence polarization
Concentration: concentration not given
Notes: mean of two replicates
Added: FAM-labelled poly r(AG)8 RNA
Measurement: fluorescence polarization change
SMILES = COC(=O)[C@H]1[C@@H](O)[C@@]2(O)c3c(OC)cccc3N(C)[C@@]2(c2ccc(OC)cc2)[C@@H]1c1ccccc1; result = 0.6 mP
SMILES = COc1ccc([C@@]23Oc4cc(OC)cc(OC)c4[C@]2(O)c2[nH]nc(O)c2[C@H]3c2ccccc2)cc1; result = 30.8 mP
SMILES = COc1ccc([C@@]23Oc4cc(OS(=O)(=O)c5ccc(C)cc5)cc(OC)c4[C@]2(O)c2nc(-c4ccccc4)n(Cc4ccccc4)c(=O)c2[C@H]3c2ccccc2)cc1; result = 1.2 mP
SMILES = COC(=O)[C@@H]1[C@@H](c2ccccc2)[C@]2(c3ccc(OC)cc3)Oc3cc(OC)cc(OC)c3[C@@]23OC(c2ccccc2Cl)=N[C@@]13O; result = 1.6 mP
SMILES = COC(=O)/C=C/Oc1nc(-c2ccccc2)nc2c1[C@@H](c1ccccc1)[C@]1(c3ccc(OC)cc3)Oc3cc(OC)cc(OC)c3[C@]21O; result = 1.7 mP
SMILES = COc1ccc([C@@]23Oc4cc(OC)cc(OC)c4[C@]2(O)c2nc(C4CCCCC4)[nH]c(=O)c2[C@H]3c2ccccc2)cc1; result = 30.4 mP
SMILES = COc1ccc([C@]23Oc4cc(OC)cc(OC)c4[C@](O)([C@H]2O)[C@@H](C(=O)N(C)OC)[C@@H]3c2ccccc2)cc1; result = -0.6 mP
SMILES = COC(=O)[C@@H]1[C@@H](c2ccccc2)[C@]2(c3ccc(OC)cc3)Oc3cc(OC)cc(OC)c3[C@@]23NC(C(F)(F)F)=N[C@@]13O; result = 13.2 mP
SMILES = COc1ccc([C@@]23Oc4cc(OC)cc(OC)c4[C@]2(O)[C@H](O)[C@H](C(=O)c2ccco2)[C@H]3c2ccc(Br)cc2)cc1; result = 2.5 mP
SMILES = C#CCOc1nc(-c2ccccc2)nc2c1[C@@H](c1ccccc1)[C@]1(c3ccc(OC)cc3)Oc3cc(OCC(=O)OCC)cc(OC)c3[C@]21OCC(=O)OCC; result = 6.7 mP
SMILES = COc1ccc([C@@]23Oc4cc(OC)cc(OC)c4[C@]2(O)[C@H](O)[C@H](CN(C)C)[C@H]3c2ccccc2)cc1; result = 45.3 mP
SMILES = O[C@@H]1C2(O)c3ccccc3O[C@]1(c1ccccc1)[C@@H](/C=C/c1ccccc1)[C@@H]2c1ccccc1; result = 9.2 mP
SMILES = COC(=O)[C@@H]1[C@@H](c2ccccc2)[C@]2(c3ccc(OC)cc3)Oc3cc(OC)cc(OC)c3[C@@]23NC(c2csc(C)n2)=N[C@@]13O; result = 23.6 mP
SMILES = COC(=O)[C@H]1[C@@H](O)[C@@]2(O)c3c(F)cccc3N(C)[C@@]2(c2ccc(OC)cc2)[C@@H]1c1ccccc1; result = 5.6 mP
SMILES = COC(=O)CCCn1c(-c2ccccc2)nc2c(c1=O)[C@H](c1ccccc1)[C@]1(c3ccc(OC)cc3)Oc3cc(OC)cc(OC)c3[C@]21O; result = 4.5 mP
SMILES = O=C1C[C@@H](c2ccccc2)[C@]2(c3ccc(Br)cc3)Oc3cc(F)cc(F)c3[C@]12O; result = 5.4 mP

Block 3
Structure (SMILES): Cc1c(C(=O)O)cc(-c2ccc(C3CCNCC3)cc2)c2ccc(-c3ccc(C(F)(F)F)cc3)cc12
Method: competition with immobilised ligand
Concentration: 1 µM
Measurement: remaining binding
target = MAP3K10 (Homo sapiens, UniProt Q02779); assay = binding; result = 100%
target = MYLK (Homo sapiens, UniProt Q15746); assay = binding; result = 82%
target = TRPM6 (Homo sapiens, UniProt Q9BX84); assay = cell-free assay; result = 100%
target = CAMK1G (Homo sapiens, UniProt Q96NX5); assay = cell-free assay; result = 100%
target = FLT3 (Homo sapiens, UniProt P36888, F691L/ITD); assay = binding; result = 100%
target = ULK2 (Homo sapiens, UniProt Q8IYT8); assay = binding; result = 100%
target = COQ8A (Homo sapiens, UniProt Q8NI60); assay = cell-free assay; result = 100%
target = BRSK1 (Homo sapiens, UniProt Q8TDC3); assay = binding; result = 100%
target = RIOK3 (Homo sapiens, UniProt O14730); assay = binding; result = 100%
target = IKBKE (Homo sapiens, UniProt Q14164); assay = binding; result = 100%
target = GRK3 (Homo sapiens, UniProt P35626); assay = binding; result = 71%
target = CHEK1 (Homo sapiens, UniProt O14757); assay = binding; result = 100%
target = Ribosomal protein S6 kinase alpha-2, N-terminal kinase domain (RPS6KA2, Homo sapiens, UniProt Q15349); assay = binding; result = 100%
target = KIT (Homo sapiens, UniProt P10721, D816V); assay = binding; result = 100%
target = FGR (Homo sapiens, UniProt P09769); assay = cell-free assay; result = 100%
target = GRK4 (Homo sapiens, UniProt P32298); assay = binding; result = 100%
target = LRRK2 (Homo sapiens, UniProt Q5S007); assay = binding; result = 100%
target = NEK2 (Homo sapiens, UniProt P51955); assay = binding; result = 100%

Block 4
Cell line: mouse MPNST tumor cells
Method: high-content nuclear imaging
Item: cell number
Concentration: 10 µM
Time: 12 h
Notes: mean of 2 replicates
Relative to: plate mean
Reading: higher = more cells
Measurement: nuclei count
Structure (SMILES) = COC(c1ccccc1)(c1ccccc1)[C@H](Oc1nc(C)cc(C)n1)C(=O)O; result = 1.33 z-score and 1.2 z-score
Structure (SMILES) = Nc1ccc(S(=O)(=O)Nc2ncccn2)cc1; result = 0.433 z-score
Structure (SMILES) = COc1cc([C@@H]2c3cc4c(cc3[C@@H](O[C@@H]3O[C@@H]5CO[C@@H](C)O[C@H]5[C@H](O)[C@H]3O)[C@H]3COC(=O)[C@H]23)OCO4)cc(OC)c1O; result = -2.93 z-score and -3.33 z-score
Structure (SMILES) = O=C(NCCO)c1cccc(-c2cc(Nc3ccc(OC(F)(F)F)cc3)ncn2)c1; result = 4.29 z-score
Structure (SMILES) = COc1c(C)cnc(Cn2cnc3c(Cl)nc(N)nc32)c1C; result = 0.635 z-score
Structure (SMILES) = COc1ccc2nc3n[nH]c(C)c3c(NCCOCCO)c2c1; result = 1.13 z-score
Structure (SMILES) = O=C(c1cn(Cc2cncn2Cc2ccc(Br)cc2)cc1-c1cccc2ccccc12)N1CCOCC1; result = 1.42 z-score
Structure (SMILES) = NCCCCCCCCCCNS(=O)(=O)c1cccc2c(Cl)cccc12; result = -2.23 z-score
Structure (SMILES) = C#C[C@]1(O)CC[C@H]2[C@@H]3CCc4cc(O)ccc4[C@H]3CC[C@@]21C; result = 0.621 z-score and 2.17 z-score
Structure (SMILES) = CCOC(=O)Nc1ccc2c(c1)N(C(=O)CN(CC)CC)c1ccccc1CC2; result = 0.606 z-score
Structure (SMILES) = COc1ccc(CCN2CCN(CCCc3ccccc3)CC2)cc1OC; result = 2.51 z-score
Structure (SMILES) = Cc1cc(CCC[C@H](CC(=O)NO)C(=O)N[C@H](C(=O)N[C@H](C)c2ccccc2)C(C)(C)C)ccc1-c1ccccc1; result = -4.12 z-score
Structure (SMILES) = c1coc(CNc2ncnc3nc[nH]c23)c1; result = 1.11 z-score
Structure (SMILES) = CC(=O)O[C@H]1CC[C@@]2(C)C(=CC[C@@H]3[C@@H]2CC[C@]2(C)C(c4cccnc4)=CC[C@@H]32)C1; result = 2.74 z-score
Structure (SMILES) = CC(C)N1CCN(c2ccc(OCC3COC(Cn4cncn4)(c4ccc(Cl)cc4Cl)O3)cc2)CC1 (stereo not shown); result = -4.71 z-score
Structure (SMILES) = CCCCCCC[N+](CC)(CC)CCCCc1ccc(Cl)cc1; result = -3.27 z-score
Structure (SMILES) = COc1cc(Cc2cnc(N)nc2N)c(C(C)C)cc1OC; result = 4.13 z-score
Structure (SMILES) = COc1cc(C(C)C)c2c(c1)S(=O)(=O)N(COc1cc(=O)n3cccc(OCCN4CCCCC4)c3n1)C2=O; result = -2.95 z-score
Structure (SMILES) = CCCOc1cc(N)ccc1C(=O)OCCN(CC)CC; result = 0.184 z-score
Structure (SMILES) = O=c1cc(N2CCOCC2)oc2c(-c3ccccc3)cccc12; result = 0.666 z-score
Structure (SMILES) = COc1ccc(OCC2c3cc(OC)c(OC)cc3CCN2C(=O)c2cccc(Cl)c2)cc1 (stereo not shown); result = -0.393 z-score

A few entries again (block 2):
SMILES = COC(=O)[C@H]1[C@@H](O)[C@@]2(O)c3c(OC)cccc3N(C)[C@@]2(c2ccc(OC)cc2)[C@@H]1c1ccccc1; result = 0.6 mP
SMILES = COc1ccc([C@@]23Oc4cc(OC)cc(OC)c4[C@]2(O)c2[nH]nc(O)c2[C@H]3c2ccccc2)cc1; result = 30.8 mP
SMILES = COc1ccc([C@@]23Oc4cc(OS(=O)(=O)c5ccc(C)cc5)cc(OC)c4[C@]2(O)c2nc(-c4ccccc4)n(Cc4ccccc4)c(=O)c2[C@H]3c2ccccc2)cc1; result = 1.2 mP
SMILES = COC(=O)[C@@H]1[C@@H](c2ccccc2)[C@]2(c3ccc(OC)cc3)Oc3cc(OC)cc(OC)c3[C@@]23OC(c2ccccc2Cl)=N[C@@]13O; result = 1.6 mP
SMILES = COC(=O)/C=C/Oc1nc(-c2ccccc2)nc2c1[C@@H](c1ccccc1)[C@]1(c3ccc(OC)cc3)Oc3cc(OC)cc(OC)c3[C@]21O; result = 1.7 mP
